Published values gathered from unrelated publications.
Every numbered part comes from another study and shows a few of its results, in no order. “And” joins repeats or separate records; there may be more than shown.
Chain of UniProt P54762 (whole entry, looked up): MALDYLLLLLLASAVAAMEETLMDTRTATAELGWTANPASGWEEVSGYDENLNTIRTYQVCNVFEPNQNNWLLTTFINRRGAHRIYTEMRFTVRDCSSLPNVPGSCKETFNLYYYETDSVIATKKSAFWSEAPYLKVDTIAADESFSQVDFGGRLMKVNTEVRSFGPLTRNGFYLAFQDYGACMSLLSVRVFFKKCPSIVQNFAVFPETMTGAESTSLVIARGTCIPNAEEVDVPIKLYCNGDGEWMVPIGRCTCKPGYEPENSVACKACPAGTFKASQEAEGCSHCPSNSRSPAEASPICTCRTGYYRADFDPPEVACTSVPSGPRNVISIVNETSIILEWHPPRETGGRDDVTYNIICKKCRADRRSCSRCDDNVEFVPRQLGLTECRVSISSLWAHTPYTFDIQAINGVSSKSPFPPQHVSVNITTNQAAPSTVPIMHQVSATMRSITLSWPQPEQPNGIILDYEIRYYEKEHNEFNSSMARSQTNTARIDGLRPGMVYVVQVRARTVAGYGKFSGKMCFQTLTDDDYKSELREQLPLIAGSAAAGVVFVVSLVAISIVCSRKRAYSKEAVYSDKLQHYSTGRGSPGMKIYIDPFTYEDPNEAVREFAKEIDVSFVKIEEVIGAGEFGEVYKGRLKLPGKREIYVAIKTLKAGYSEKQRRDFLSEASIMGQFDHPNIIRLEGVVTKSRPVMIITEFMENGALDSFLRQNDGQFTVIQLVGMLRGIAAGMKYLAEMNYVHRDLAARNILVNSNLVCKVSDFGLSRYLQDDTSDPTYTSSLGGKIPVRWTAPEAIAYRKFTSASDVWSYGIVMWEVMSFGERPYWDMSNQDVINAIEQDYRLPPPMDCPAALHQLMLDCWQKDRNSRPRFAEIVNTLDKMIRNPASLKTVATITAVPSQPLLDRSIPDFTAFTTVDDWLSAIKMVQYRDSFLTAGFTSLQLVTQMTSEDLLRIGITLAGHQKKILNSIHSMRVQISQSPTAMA
Chain of UniProt O14733 (whole entry, looked up): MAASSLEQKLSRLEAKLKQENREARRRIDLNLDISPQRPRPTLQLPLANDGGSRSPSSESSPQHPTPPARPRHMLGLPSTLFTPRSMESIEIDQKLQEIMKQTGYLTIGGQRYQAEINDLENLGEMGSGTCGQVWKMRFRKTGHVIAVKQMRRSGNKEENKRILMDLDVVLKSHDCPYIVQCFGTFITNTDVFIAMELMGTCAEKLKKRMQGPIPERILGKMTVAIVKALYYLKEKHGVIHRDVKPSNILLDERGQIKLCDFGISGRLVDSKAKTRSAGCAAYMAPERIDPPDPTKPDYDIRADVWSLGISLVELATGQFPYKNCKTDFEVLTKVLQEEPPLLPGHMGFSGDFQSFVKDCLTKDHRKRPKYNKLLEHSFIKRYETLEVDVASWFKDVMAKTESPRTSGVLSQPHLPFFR
Chain of UniProt Q00534 (whole entry, looked up): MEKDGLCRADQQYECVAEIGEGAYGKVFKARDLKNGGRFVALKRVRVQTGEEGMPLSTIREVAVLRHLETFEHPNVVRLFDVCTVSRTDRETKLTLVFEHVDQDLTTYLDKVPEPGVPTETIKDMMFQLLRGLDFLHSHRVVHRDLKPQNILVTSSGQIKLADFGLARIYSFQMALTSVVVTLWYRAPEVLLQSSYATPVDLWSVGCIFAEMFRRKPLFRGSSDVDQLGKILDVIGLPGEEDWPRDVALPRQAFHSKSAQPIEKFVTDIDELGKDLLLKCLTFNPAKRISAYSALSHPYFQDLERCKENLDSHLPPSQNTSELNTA
Chain of UniProt Q13554 (whole entry, looked up): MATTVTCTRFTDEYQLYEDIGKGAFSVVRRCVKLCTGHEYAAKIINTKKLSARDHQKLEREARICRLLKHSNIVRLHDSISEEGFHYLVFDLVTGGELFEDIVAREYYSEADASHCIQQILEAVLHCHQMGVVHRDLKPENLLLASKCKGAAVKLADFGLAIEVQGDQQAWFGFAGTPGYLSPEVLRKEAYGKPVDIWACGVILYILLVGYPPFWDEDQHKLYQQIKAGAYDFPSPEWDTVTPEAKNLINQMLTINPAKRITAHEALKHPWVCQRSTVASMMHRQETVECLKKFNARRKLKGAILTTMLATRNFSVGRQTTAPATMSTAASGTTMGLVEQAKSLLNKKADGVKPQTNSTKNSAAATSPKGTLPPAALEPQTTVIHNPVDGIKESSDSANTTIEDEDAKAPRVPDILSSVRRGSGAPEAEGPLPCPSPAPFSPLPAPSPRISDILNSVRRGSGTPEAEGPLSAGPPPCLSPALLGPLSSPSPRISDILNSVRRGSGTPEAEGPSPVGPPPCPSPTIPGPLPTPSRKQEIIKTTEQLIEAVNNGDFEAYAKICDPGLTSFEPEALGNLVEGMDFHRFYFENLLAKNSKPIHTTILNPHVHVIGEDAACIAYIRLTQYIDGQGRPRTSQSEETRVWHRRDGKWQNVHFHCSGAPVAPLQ
Chain of UniProt Q16584 (whole entry, looked up): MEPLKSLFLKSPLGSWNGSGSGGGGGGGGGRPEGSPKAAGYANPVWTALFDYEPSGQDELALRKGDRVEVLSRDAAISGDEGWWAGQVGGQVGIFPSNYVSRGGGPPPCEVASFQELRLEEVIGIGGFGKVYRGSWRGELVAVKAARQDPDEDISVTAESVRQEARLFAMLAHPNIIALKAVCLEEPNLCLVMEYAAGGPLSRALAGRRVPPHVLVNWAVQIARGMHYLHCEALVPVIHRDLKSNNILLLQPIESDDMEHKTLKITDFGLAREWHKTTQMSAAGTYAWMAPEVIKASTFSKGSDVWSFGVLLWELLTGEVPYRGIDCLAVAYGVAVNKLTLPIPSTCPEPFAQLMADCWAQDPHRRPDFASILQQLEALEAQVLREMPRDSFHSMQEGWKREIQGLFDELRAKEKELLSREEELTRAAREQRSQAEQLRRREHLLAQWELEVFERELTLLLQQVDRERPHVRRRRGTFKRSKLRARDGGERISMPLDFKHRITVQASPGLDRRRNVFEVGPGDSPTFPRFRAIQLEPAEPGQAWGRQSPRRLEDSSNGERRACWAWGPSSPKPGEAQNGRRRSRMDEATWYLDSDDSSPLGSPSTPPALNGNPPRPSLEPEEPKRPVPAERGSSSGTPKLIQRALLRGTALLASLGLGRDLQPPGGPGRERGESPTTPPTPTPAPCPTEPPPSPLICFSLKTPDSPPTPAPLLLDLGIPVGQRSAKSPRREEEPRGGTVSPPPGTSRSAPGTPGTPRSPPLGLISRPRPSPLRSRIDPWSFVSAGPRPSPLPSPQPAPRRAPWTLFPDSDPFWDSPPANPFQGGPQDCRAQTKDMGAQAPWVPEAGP
Chain of UniProt P07947 (whole entry, looked up): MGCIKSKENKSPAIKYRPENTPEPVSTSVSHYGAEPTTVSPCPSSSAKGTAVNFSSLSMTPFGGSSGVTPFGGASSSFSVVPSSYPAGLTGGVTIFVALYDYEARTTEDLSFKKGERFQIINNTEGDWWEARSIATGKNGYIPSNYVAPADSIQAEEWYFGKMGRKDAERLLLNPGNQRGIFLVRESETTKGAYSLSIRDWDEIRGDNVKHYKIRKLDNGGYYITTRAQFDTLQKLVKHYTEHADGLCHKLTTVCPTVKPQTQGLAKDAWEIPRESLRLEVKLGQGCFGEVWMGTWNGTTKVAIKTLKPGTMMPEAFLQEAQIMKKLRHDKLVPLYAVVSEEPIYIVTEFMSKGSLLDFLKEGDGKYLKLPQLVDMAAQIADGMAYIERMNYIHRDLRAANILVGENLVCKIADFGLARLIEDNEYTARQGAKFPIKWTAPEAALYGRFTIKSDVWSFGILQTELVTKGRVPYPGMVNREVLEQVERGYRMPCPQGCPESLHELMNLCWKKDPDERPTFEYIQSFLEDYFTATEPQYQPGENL
Chain of UniProt P42336 (whole entry, unmodified, looked up): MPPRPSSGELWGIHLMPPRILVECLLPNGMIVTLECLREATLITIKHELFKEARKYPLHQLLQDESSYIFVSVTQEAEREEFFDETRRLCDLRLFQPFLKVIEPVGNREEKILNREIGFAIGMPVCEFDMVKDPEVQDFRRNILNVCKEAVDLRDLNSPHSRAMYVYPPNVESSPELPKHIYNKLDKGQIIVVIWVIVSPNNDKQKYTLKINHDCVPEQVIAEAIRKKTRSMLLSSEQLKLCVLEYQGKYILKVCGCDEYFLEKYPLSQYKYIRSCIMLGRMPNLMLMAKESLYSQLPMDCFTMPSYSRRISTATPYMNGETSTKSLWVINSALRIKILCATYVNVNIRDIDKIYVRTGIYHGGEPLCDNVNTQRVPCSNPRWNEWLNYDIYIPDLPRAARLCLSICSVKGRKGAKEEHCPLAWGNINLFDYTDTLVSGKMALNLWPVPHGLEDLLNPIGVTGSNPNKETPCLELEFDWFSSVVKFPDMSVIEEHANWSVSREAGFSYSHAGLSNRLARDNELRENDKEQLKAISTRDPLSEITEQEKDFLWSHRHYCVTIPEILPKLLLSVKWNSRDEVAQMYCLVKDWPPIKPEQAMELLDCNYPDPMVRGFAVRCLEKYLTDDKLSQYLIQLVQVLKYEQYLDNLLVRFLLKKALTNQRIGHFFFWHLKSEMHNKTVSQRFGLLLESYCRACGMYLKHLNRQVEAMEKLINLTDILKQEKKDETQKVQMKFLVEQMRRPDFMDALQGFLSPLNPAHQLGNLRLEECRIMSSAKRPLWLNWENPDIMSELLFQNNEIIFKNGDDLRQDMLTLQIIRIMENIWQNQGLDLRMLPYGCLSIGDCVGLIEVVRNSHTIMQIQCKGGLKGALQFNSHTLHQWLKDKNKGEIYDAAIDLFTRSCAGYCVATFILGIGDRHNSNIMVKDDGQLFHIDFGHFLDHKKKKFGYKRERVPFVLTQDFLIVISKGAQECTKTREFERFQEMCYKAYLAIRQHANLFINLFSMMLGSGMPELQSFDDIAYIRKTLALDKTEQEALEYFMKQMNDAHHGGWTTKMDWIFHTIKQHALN

Study 1
Compound: CN(C(=O)c1ccccc1)c1cc(N(C)c2ccc3c(c2)CCc2ccc(C(=O)NCCN4CCOCC4)cc2C3=O)ccc1F
Effect on: cell-free assay
Technique: competition with immobilised ligand
Tested at: 1 µM
| target | remaining binding |
| --- | --- |
| DCLK3 (Homo sapiens, UniProt Q9C098) | 87% |
| PIK3CA (Homo sapiens, UniProt P42336, H1047Y) | 100% |
| SGK3 (Homo sapiens, UniProt Q96BR1) | 93% |
| MAP3K11 (Homo sapiens, UniProt Q16584) | 92% |
| MAP2K7 (Homo sapiens, UniProt O14733) | 100% |
| YES1 (Homo sapiens, UniProt P07947) | 100% |
| CSNK1A1 (Homo sapiens, UniProt P48729) | 100% |
| CIT (Homo sapiens, UniProt O14578) | 70% |
| STK4 (Homo sapiens, UniProt Q13043) | 100% |
| EPHB1 (Homo sapiens, UniProt P54762) | 96% |
| STK3 (Homo sapiens, UniProt Q13188) | 100% |
| PLK2 (Homo sapiens, UniProt Q9NYY3) | 91% |
| EPHA5 (Homo sapiens, UniProt P54756) | 100% |
| KIT (Homo sapiens, UniProt P10721, A829P) | 100% |
| EGFR (Homo sapiens, UniProt P00533, G719S) | 70% |
| Tyrosine-protein kinase ABL1, phosphorylated (ABL1, Homo sapiens, UniProt P00519, Q252H) | 100% |

Study 2
Compound: O=C1Cc2c([nH]c3ccc(Br)cc23)-c2ccccc2N1
Effect on: enzyme activity
Mode: inhibitor
Tested at: 0.5 µM
Relative to: control
| target | remaining activity [%] |
| --- | --- |
| PDPK1 (Homo sapiens, UniProt O15530) | 94.9 |
| PRKACG (Homo sapiens, UniProt P22612) | 105 |
| EPHB4 (Homo sapiens, UniProt P54760) | 100 |
| STK17A (Homo sapiens, UniProt Q9UEE5) | 102 |
| PHKG1 (Homo sapiens, UniProt Q16816) | 49.7 |
| CAMK2B (Homo sapiens, UniProt Q13554) | 97.8 |
| ABL1 (Homo sapiens, UniProt P00519) | 82.6 |
| HIPK2 (Homo sapiens, UniProt Q9H2X6) | 107 |
| STK16 (Homo sapiens, UniProt O75716) | 98.9 |
| Cyclin-dependent kinase 6, with cyclin D3 (CDK6, Homo sapiens, UniProt Q00534) | 94.4 |
| EPHB1 (Homo sapiens, UniProt P54762) | 93.5 |

Study 3
SMILES: CC(C)n1cnc(-c2ccc(F)cc2)c1-c1ncc(C(=O)Nc2ccc(N3CCN(C)CC3)cc2)[nH]1
| technique | measured | species | route | dose | setting | patients with adverse event [%] |
| --- | --- | --- | --- | --- | --- | --- |
| Phase 2a trial | hypertriglyceridaemia | human, idiopathic pulmonary fibrosis | – | 30 mg once daily | grade 5 | 0 |
| Phase 2a trial | hypocalcaemia | human, idiopathic pulmonary fibrosis | – | 60 mg once daily | grade 2 | 0 |
| – | skin papilloma, maximum grade 1 | idiopathic pulmonary fibrosis patients | – | dose not given | all compound arms pooled | 0 |
| Phase 2a trial | hyperlipidaemia | human, idiopathic pulmonary fibrosis | – | 30 mg once daily | grade 3 | 0 |
| – | periorbital oedema, grade 3 | idiopathic pulmonary fibrosis patients | oral | 30 mg once daily | – | 0 |
| Phase 2a trial | respiratory, thoracic, mediastinal disorders | human, idiopathic pulmonary fibrosis | – | 60 mg once daily | grade 5 | 0 |
| – | periorbital oedema, grade 5 | idiopathic pulmonary fibrosis patients | – | dose not given | all compound arms pooled | 0 |
| – | alkaline phosphatase increased | patients with idiopathic pulmonary fibrosis | – | dose not given | trial, compound arms pooled | 0 |
| Phase 2a trial | hyperlipidaemia | human, idiopathic pulmonary fibrosis | – | 30 mg once daily | grade 4 | 0 |

Further values, each from its own experiment
Cell line: Gaucher fibroblasts L444P/L444P
Technique: 4-MUG hydrolysis, cell lysate
Relative to: DMSO
| SMILES | tested at | GCase activity |
| --- | --- | --- |
| Ic1ccc(Nc2nc(NCCN3CCOCC3)nc(N3CCOCC3)n2)cc1 | 5 µM | 189% and 193% and 156% |
| c1ccc2c(-c3nn4c(-c5ccncc5)nnc4s3)c[nH]c2c1 | 1 µM | 165% |

Some of these lines once more (study 1):
| target | remaining binding |
| --- | --- |
| STK4 (Homo sapiens, UniProt Q13043) | 100% |
| EPHB1 (Homo sapiens, UniProt P54762) | 96% |
| STK3 (Homo sapiens, UniProt Q13188) | 100% |
| PLK2 (Homo sapiens, UniProt Q9NYY3) | 91% |
